Results pooled from the literature.
Each line is one published result; not all experiments were run side by side. Values joined by “and” are separate records of one study, mostly repeats; a detail may differ. ± marks the error that the study gave.

CSCC[C@H](NC(=O)CNC(=O)[C@H](CCCCN)NC(=O)[C@H](CC(C)C)NC(=O)[C@@H]1CCCN1C(=O)[C@H](CO)NC(=O)[C@H](Cc1c[nH]cn1)NC(=O)[C@H](Cc1c[nH]c2ccccc12)NC(=O)[C@H](CCCNC(=N)N)NC(=O)[C@H](CC(C)C)NC(=O)[C@H](CCCNC(=N)N)NC(=O)[C@H](Cc1c[nH]c2ccccc12)NC(=O)[C@H](CS)NC(=O)CCCCCNC(=O)CN1CCN(CC(=O)O)CCN(CC(=O)O)CCN(CC(=O)O)CC1)C(=O)O [copper-64 labelled] — tissue uptake (C57BL/6J mice, B16-F10 tumour, brain; intravenous, 1.85 MBq, 30 h): 0.29 %ID/g
CC(=O)NCCCC[C@@H]1NC(=O)[C@H](Cc2c[nH]c3c(C)cccc23)NC(=O)[C@H]([C@@H](C)O)NC(=O)[C@H](CC(N)=O)NC(=O)[C@@H](NC(C)=O)C(C)(C)SSC(C)(C)[C@@H](C(=O)N[C@@H](Cc2ccc(OCCN)cc2)C(=O)N[C@@H](Cc2ccc3ccccc3c2)C(=O)NC2(C(=O)N[C@@H](CCC(=O)O)C(=O)N[C@@H](CC(N)=O)C(=O)N[C@@H](Cc3cccnc3)C(=O)N(C)CC(N)=O)CCOCC2)NC1=O — blood to plasma ratio (human, blood; 0.0013 µM, 2 h): 0.49 ± 0.04
CC[C@H](C)[C@H](NC(=O)[C@H](CCCCN)NC(=O)CNC(=O)[C@H](CC(C)C)NC(=O)[C@H](Cc1ccccc1)NC(=O)[C@H](CCCCN)NC(=O)[C@H](CO)NC(=O)[C@H](Cc1ccccc1)NC(=O)[C@H](Cc1c[nH]c2ccccc12)NC(=O)[C@H](CCC(N)=O)NC(=O)[C@@H](NC(=O)[C@H](Cc1ccccc1)NC(=O)CCCCCNC(=O)CN1CCN(CC(=O)O)CCN(CC(=O)O)CCN(CC(=O)O)CC1)C(C)C)C(=O)N[C@@H](CCC(=O)O)C(=O)N1CCC[C@H]1C(=O)N[C@H](CC(=O)O)C(=O)N[C@H](C(=O)N[C@@H](CO)C(=O)N[C@@H](CCC(N)=O)C(=O)N[C@H](C(=O)N[C@@H](CCC(N)=O)C(=O)N[C@@H](CC(=O)O)C(=O)N1CCC[C@H]1C(=O)N[C@@H](CC(N)=O)C(=O)N[C@@H](CC(=O)O)C(=O)N[C@@H](CCC(N)=O)C(=O)N[C@@H](Cc1ccc(O)cc1)C(=O)N[C@@H](CCC(=O)O)C(=O)N1CCC[C@H]1C(=O)N[C@@H](Cc1ccccc1)C(=O)O)C(C)C)C(C)C [copper-64 labelled] — tissue uptake (C57BL/6 mice, male, MC-38 tumour-bearing, kidneys; 2 h, checkpoint inhibitor-treated): 16.4 ± 2.5 %ID/g
C#Cc1c(F)ccc2cc(O)cc(-c3ncc4c(N5CC6CCC(C5)N6C(=O)OC(C)OC(=O)C5CCOC5)nc(OC[C@@]56CCCN5C[C@H](F)C6)nc4c3F)c12 (stereo partly drawn) — compound remaining (chemical stability; simulated intestinal fluid; 1 µM, 30 min): 83.5%
CC(C)[C@@H]1NC(=O)CNC(=O)[C@H](CC(N)=O)NC(=O)[C@H](CCCNC(=N)N)NC(=O)[C@H](Cc2ccc(O)cc2)NC(=O)[C@H](C(C)C)NC(=O)[C@@H](NC(=O)[C@@H](NC(=O)[C@H](CC(N)=O)NC(=O)[C@H](Cc2c[nH]c3ccccc23)NC(=O)[C@H](C)NC(=O)[C@H](Cc2ccccc2)NC(=O)CNC(=O)[C@H](CCCCN)NC(=O)[C@H](Cc2ccccc2)NC(=O)[C@H](Cc2ccccc2)NC(=O)[C@H](CCCCN)NC(=O)OCC2c3ccccc3-c3ccccc32)C(C)C)CSSC[C@@H](C(=O)N[C@@H](Cc2c[nH]cn2)C(=O)N[C@@H](CCCNC(=N)N)C(=O)N[C@@H](CCCNC(=N)N)C(=O)N[C@@H](C)C(=O)N[C@@H](CC(N)=O)C(N)=O)NC(=O)[C@H](C(C)C)NC(=O)[C@H](CCCNC(=N)N)NC1=O — haemoglobin (ICR mouse, blood; intramammary, 5 mg/kg, day 5, 3 d dosing): 123 ± 6.13 g/L
CN1Cc2cc(Cl)ccc2-n2c(nnc2C2CCN(c3cccc([18F])n3)CC2)C1 — tissue uptake (C57BL/6 mouse male, pancreas; intravenous, dose not given, 5 min, added: blocking agent 10 mg/kg): 7.64 ± 1.34 %ID/g
N#[11C]c1ccc(-c2csc(NN=C3CCCC3)n2)cc1 — unchanged compound (radio-HPLC; C57BL/6 mouse, liver; intravenous, 37 MBq, 15 min): 4.59% and 5%
O=C1NC2(CC2)COc2ncc(F)cc2[C@H]2COCCN2c2ccn3ncc1c3n2 — basophil percentage (Sprague-Dawley rats, male, blood; oral, 2.5 mg/kg/day, end of recovery, 4-week subacute toxicity): 0.08 ± 0.04%
Cc1ccc(OCC(=O)N(Cc2cccs2)c2ccn[nH]2)cc1 — micronucleated PCEs (in vivo micronucleus; Crl:CD-1(ICR) mice, female, bone marrow polychromatic erythrocytes; oral, 1000 mg/kg/day, 3 days): 0%
CCCC[C@H]1C(=O)N(C)[C@@H](CCCC)C(=O)N[C@@H](CCCNC(=O)CN2CCN(CC(=O)O)CCN(CC(=O)O)CCN(CC(=O)O)CC2)C(=O)N[C@H](C(=O)NCC(N)=O)CSCC(=O)N[C@@H](Cc2ccc(O)cc2)C(=O)N(C)[C@@H](C)C(=O)N[C@@H](CC(N)=O)C(=O)N2CCC[C@H]2C(=O)N[C@@H](Cc2c[nH]cn2)C(=O)N[C@@H](CC(C)C)C(=O)N(C)CC(=O)N[C@@H](Cc2c[nH]c3ccccc23)C(=O)N[C@@H](CO)C(=O)N[C@@H](Cc2c[nH]c3ccccc23)C(=O)N1C [gallium-68 labelled] — tissue uptake (NOD/SCID mice with CHO-hPD-L1 xenograft, blood; 10 min post injection): 12.9 ± 0.42 %ID/g
C=CC(=O)Nc1cccc(Cn2ncc3cnc(Nc4cnn(CCOC)c4)nc32)c1 — blood PDW (male Sprague-Dawley rat; oral, 180 mg/kg/day, day 28, 28-day subacute toxicity): 15.8 ± 0.23 fL
CSCC[C@@H]1NC(=O)[C@H](C(C)C)NC(=O)[C@H](CCCNC(=N)N)NC(=O)[C@@H]2CCCN2C(=O)CNC(=O)[C@@H](NC(=O)CNC(=O)[C@H](CO)NC(=O)CNC(=O)[C@H](CO)NC(=S)Nc2ccc(C[C@H]3CN(CC(=O)O)CCN(CC(=O)O)CCN3CC(=O)O)cc2)CSSC[C@@H](C(N)=O)NC(=O)[C@@H]2CCCN2C(=O)CNC(=O)[C@H](CCC(=O)O)NC(=O)[C@H](CC(=O)O)NC(=O)[C@H](CC(=O)O)NC(=O)CNC(=O)[C@H](CC(C)C)NC(=O)[C@H](Cc2c[nH]cn2)NC(=O)[C@H](CC(C)C)NC(=O)CNC(=O)[C@H](Cc2c[nH]cn2)NC1=O [copper-64 labelled] — half-life (dynamic PET; CD rat, myocardial infarction model, remote myocardium; intravenous, 18.5 MBq, 0 to 5 min): 2.6 ± 0.2 min

For quick reference, copied from above:
CC[C@H](C)[C@H](NC(=O)[C@H](CCCCN)NC(=O)CNC(=O)[C@H](CC(C)C)NC(=O)[C@H](Cc1ccccc1)NC(=O)[C@H](CCCCN)NC(=O)[C@H](CO)NC(=O)[C@H](Cc1ccccc1)NC(=O)[C@H](Cc1c[nH]c2ccccc12)NC(=O)[C@H](CCC(N)=O)NC(=O)[C@@H](NC(=O)[C@H](Cc1ccccc1)NC(=O)CCCCCNC(=O)CN1CCN(CC(=O)O)CCN(CC(=O)O)CCN(CC(=O)O)CC1)C(C)C)C(=O)N[C@@H](CCC(=O)O)C(=O)N1CCC[C@H]1C(=O)N[C@H](CC(=O)O)C(=O)N[C@H](C(=O)N[C@@H](CO)C(=O)N[C@@H](CCC(N)=O)C(=O)N[C@H](C(=O)N[C@@H](CCC(N)=O)C(=O)N[C@@H](CC(=O)O)C(=O)N1CCC[C@H]1C(=O)N[C@@H](CC(N)=O)C(=O)N[C@@H](CC(=O)O)C(=O)N[C@@H](CCC(N)=O)C(=O)N[C@@H](Cc1ccc(O)cc1)C(=O)N[C@@H](CCC(=O)O)C(=O)N1CCC[C@H]1C(=O)N[C@@H](Cc1ccccc1)C(=O)O)C(C)C)C(C)C [copper-64 labelled] — tissue uptake (C57BL/6 mice, male, MC-38 tumour-bearing, kidneys; 2 h, checkpoint inhibitor-treated): 16.4 ± 2.5 %ID/g
C#Cc1c(F)ccc2cc(O)cc(-c3ncc4c(N5CC6CCC(C5)N6C(=O)OC(C)OC(=O)C5CCOC5)nc(OC[C@@]56CCCN5C[C@H](F)C6)nc4c3F)c12 (stereo partly drawn) — compound remaining (chemical stability; simulated intestinal fluid; 1 µM, 30 min): 83.5%
